Measurements collected from several papers.
Lines come from different studies, so protocols differ. ± gives the spread as reported.

Structure (SMILES)	test	system	conditions	scale	quantity	result
COc1cc2c(cc1OC)CN(CCCCn1ccc3cc(OCC[18F])ccc31)C2	–	male CD-1 mouse, pancreas	intravenous, 280 kBq, 2 min	–	tracer uptake	11.7 %ID/g
C[C@H](CN(C)Cc1ccccc1)NC(=O)c1ccc(-c2noc(C(F)(F)[18F])n2)cc1	PET	Sprague-Dawley rat, female, brain and muscle	intravenous, 60 min	reference: brain SUV over muscle SUV	brain-to-muscle ratio	1.88 ± 0.21
Cc1ccc(CNC(=O)Cc2ccc(-c3ccc(OCCN4CCOCC4)cc3)cn2)cc1	–	ICR mouse	intravenous, 2 mg/kg	–	half-life	7.05 ± 1.92 h
NS(=O)(=O)c1ccc(N2N=C(C(F)(F)F)CC2c2ccc(F)cc2F)cc1 (stereo not shown)	population PK model, NONMEM	Beagle dog	–	–	V/F central, bootstrap median	6.6 L
CCCC[C@H](NC(=O)CNC(=O)CNC(=O)CN1CCN(CC(=O)O)CCN(CC(=O)O)CCN(CC(=O)O)CC1)C(=O)N[C@H]1CC(=O)NCCCC[C@@H](C(N)=O)NC(=O)[C@H](Cc2c[nH]c3ccccc23)NC(=O)[C@H](CCCNC(=N)N)NC(=O)[C@@H](Cc2ccccc2)NC(=O)[C@H](Cc2c[nH]cn2)NC1=O [copper-64 labelled]	–	female C57 mouse, B16/F1 melanoma	intravenous, 0.037 MBq, 0.5 h	reference: tumour over kidneys	uptake ratio	0.39
N=C(N)NCCC[C@@H]1NC(=O)[C@H](Cc2c[nH]c3ccccc23)NC(=O)[C@@H](CC2CCCCC2)NC(=O)[C@@H]2CCCN2C(=O)[C@@H](NC(=O)CCc2ccccc2)CCCNC1=O	two-compartment model	C57BL/6J mice, plasma	intraperitoneal, 1 mg/kg	–	alpha rate constant	0.07 min⁻¹
CCC/C(=C\C1=C(OC)C(=O)c2ccccc2C1=O)C(=O)NOC	–	human liver S9	1 µM, pH 7.4, metabolism	–	CLint scaled	1 mL/min/kg
NC[C@@H](C(=O)Nc1ccc(-c2cn[nH]c2)cc1)c1ccccc1	OECD 405, measured: Cornea	New Zealand White rabbit	topical, 0.1 %, 80 h, day 4	direction not given	ocular irritation score	0
OCc1cn(Cc2ccc(-c3noc(-c4ccc(OCC[18F])c(C(F)(F)F)c4)n3)cc2)nn1	–	rat, brain	intravenous, 1 h	–	tracer uptake	0.71 %ID/g
C[C@]12C[C@H](c3ccc(S(C)(=O)=O)cc3)C3=C4CCC(=O)C=C4CC[C@H]3[C@@H]1CC[C@@]2(O)C(F)(F)C(F)(F)F	–	human, plasma	–	–	unbound fraction	0.05
C[C@H](Oc1cc(-c2cnn(C3CCN(CC[18F])CC3)c2)cnc1N)c1c(Cl)ccc(F)c1Cl	PET imaging	nude mouse, kidney	iv, 5 min post injection	–	tracer uptake	16.9 ± 5.5 %ID/cc
CCN(c1cc(C#CCN2CCOCC2)cc(C(=O)NCc2c(C)cc(C)[nH]c2=O)c1C)[C@H]1CC[C@H](N(C)CCOC)CC1	–	rat liver microsomes	well-stirred model	–	scaled intrinsic clearance	< 10 mL/min/kg
NCCCNc1nc2cc(Cl)ccc2n1Cc1ccccc1	metabolic stability	mouse, liver microsomes	0.1 µM, 30 min, pH 7.4	–	compound remaining	89.8%
C[C@]12CC[C@@H]3c4ccc(OCC(=O)N[C@@H](CCCCNC(=O)CN5CCN(CC(=O)[O-])CCN(CC(=O)[O-])CCN(CC(=O)[O-])CC5)C(=O)O)cc4CC[C@H]3[C@@H]1CCC2=O.[68Ga+3]	–	female nude mice, MCF7 xenograft, blood	dose not given, 2.5 h post-injection	–	radioactivity uptake	0.3 %ID/g
CN1C(=O)[C@@H](Cc2ccc(O)c(I)c2)NC(=O)CNC(=O)[C@H](Cc2ccc3ccccc3c2)NC(=O)[C@H](CCCNC(=N)N)NC(=O)[C@H]1CCCNC(=O)c1ccc(CNC(=O)CN2CCN(CC(=O)O)CCN(CC(=O)O)CCN(CC(=O)O)CC2)cc1 [lutetium-177 labelled]	measured: 177Lu radioactivity	female CB-17 SCID mice, Daudi xenograft, pancreas	intravenous, 0.16 nmol per mouse, 1 h	–	tissue uptake	0.4 ± 0.1 %ID/g
[11CH3]Nc1ccc(-c2nc3ccc(O)cc3o2)cn1	PET	human, brain	intravenous, dose not given	–	peak brain radioactivity	2.5 to 3.5 % injected dose

A few entries again:
Structure (SMILES)	test	system	conditions	scale	quantity	result
C[C@]12CC[C@@H]3c4ccc(OCC(=O)N[C@@H](CCCCNC(=O)CN5CCN(CC(=O)[O-])CCN(CC(=O)[O-])CCN(CC(=O)[O-])CC5)C(=O)O)cc4CC[C@H]3[C@@H]1CCC2=O.[68Ga+3]	–	female nude mice, MCF7 xenograft, blood	dose not given, 2.5 h post-injection	–	radioactivity uptake	0.3 %ID/g
